# Published values gathered from unrelated publications.
# “And” joins repeats or separate records; there may be more than shown. ± gives the spread as reported.
SMILES,test,system,setting,scale,quantity,result
O=C(Nc1cnccc1-c1ccc([18F])nc1)c1ccnc(NC(=O)C2CC2)c1,,"FVB/NJ mice (both sexes), muscle","intravenous, dose not given, 120 min, together with: tariquidar 15 mg/kg i.v. pre-dose",,SUV,3.26
CCC1(CC)CC(=O)N(C2c3cc(C(=O)NC4c5ccccc5CC4O)ccc3OC2(C)COC)C(=N)N1 (centres unmarked),metabolic stability,"dog, hepatocytes",,,hepatocyte CLint,4.9 µL/min/10⁶ cells
COc1cccc(OC)c1-c1cc(C(=O)NC2(C(=O)O)C3CC4CC(C3)CC2C4)nn1-c1ccc(C(=O)N(C)CCOCCOCCN(C)C(=O)[C@H](CCCCNC(=O)[C@H](CC(C)C)NC(=O)C2OC2C(=O)O)NC(=O)CN2CCN(CC(=O)[O-])CCN(CC(=O)[O-])CCN(CC(=O)[O-])CC2)cc1C(C)C.[177Lu+3] (mixture of isomers),,"mouse, HT-29 xenograft","168 h post injection, biodistribution",reference: tumour over brain uptake,tumour-to-brain ratio,40.6
Cc1nn(-c2nc3c(F)cc(F)cc3s2)c(O)c1C(c1ccc(C(F)(F)F)cc1)c1c(C)nn(-c2nc3c(F)cc(F)cc3s2)c1O,,"ICR mouse, plasma","intraperitoneal, 10 mg/kg",,AUC(all),26400 ng·h/mL and 26000 ng·h/mL and 28700 ng·h/mL
CCCC[C@H](OC(C)=O)c1ccccc1C(=O)O,,"Sprague-Dawley rat, both sexes, whole blood","intravenous, 5 mg/kg, day 7",,MRT(0-inf),258 ± 72 min
C=CC(=O)Nc1cc(Nc2nccc(-c3c[nH]c4ccccc34)n2)c(OC)cc1N(C)CCN(C)C,storage stability,human dried blood spots,"24 h, on ice, medium QC level",,recovery,78.5%
CC[C@H](C)[C@H](NC(=O)[C@H](Cc1ccc(O)cc1)NC(=O)[C@@H](NC(=O)[C@H](CCCNC(=N)N)NC(=O)[C@@H](N)CC(=O)O)C(C)C)C(=O)N[C@@H](Cc1c[nH]cn1)C(=O)N1CCC[C@H]1C(=O)O,LC-MS/MS,"Sprague-Dawley rats, both sexes, plasma","subcutaneous, 10 mg/kg/day, day 0",,Cmax,25.6 ng/mL
C=C(NC(=O)c1csc(-c2nc3c(cc2O)-c2nc(cs2)C(=O)NC(C(C)O)C(=O)NC(=C(C)OC)c2nc(cs2)C(=O)NC2c4nc(cs4)C(=O)NC(COC(=O)c4c5c6c(cccc6n4O)COC(=O)C(OC4CC(C)(O)C(N(C)C)C(C)O4)C2OC5)c2nc-3cs2)n1)C(N)=O (centres unmarked),,"female cynomolgus monkey, plasma","intravenous, 1 mg/kg, single dose, infusion",,AUC(0-t),7930 ng·h/mL
O=C(Nc1cnccc1-c1ccc([18F])cc1)c1ccnc(NC(=O)C2CC2)c1,"ex vivo biodistribution, gamma counting","GSK-3β overexpressing transgenic mouse, late stage, brain stem","intravenous, 1.26 MBq/animal, 120 min post-injection",,mean SUV,0.17
CC(=O)N([O-])CCCCCNC(=O)CCC(=O)N([O-])CCCCCNC(=O)CCC(=O)N([O-])CCCCCN.[89Zr+4],radio-TLC,aqueous buffer,"5 d, pH 7, 37 °C, 89Zr-labelled complex, together with: DTPA 1000-fold excess",,intact complex,72 ± 2.9%
CCc1cnc(NC(=O)c2cc(S(=O)(=O)N3CCOCC3)ccc2N(C)C2CCCC2)s1,,mouse,"10 mg/kg, 3 doses",,total bilirubin,0.1 mg/dL
CC[C@H](C)[C@@H]1NC(=O)[C@H](Cc2ccc(O)cc2)NC(=O)CCCSC[C@@H](C(=O)N(CC(=O)N[C@@H](CC(C)C)C(=O)NCC(N)=O)Cc2ccc(F)cc2)NC(=O)[C@H](CC(N)=O)NC(=O)[C@H](CCC(N)=O)NC1=O,,"healthy human, plasma","intranasal, 50 µg every 3 h, after first dose",,AUC(0-t),0.018 ng·h/mL
CCC(C(=O)Nc1ccc(C(N)=O)c(F)c1)n1cc(OC)c(-c2cc(Cl)ccc2-n2cc(C(F)(F)F)nn2)cc1=O (centres unmarked),,healthy male humans,"50 mg, maximum intensity, together with: omeprazole",,mild drug-related adverse events,0%
CCCCN1C(=O)c2cccc3c(NCCCCCN4CCOCC4)ccc(c23)C1=O,,acetonitrile,,,fluorescence quantum yield,1.19
C=CC(=O)Nc1cc(Nc2nccc(-c3cn(C)c4ccccc34)n2)c(OC)cc1N(C)CCNC,storage stability,human plasma,"24 h, on ice, medium QC level",,recovery,89.5%
Cc1ncc2c(n1)CN(C(=O)Nc1nc(-c3cccs3)ccc1N)C2,,"C57BL/6 mouse, plasma","oral gavage, 10 mg/kg",,free Cmax,759 ng/mL
CC(C)(O)c1ncc([S@](N)(=O)=NC(=O)Nc2c3c(cc4c2CCC4)CCC3)s1,item: musculoskeletal-connective tissue disorders,healthy human volunteers,"oral, 100 mg single dose, crystalline suspension",,subjects with TEAEs,17%
C(=N\Nc1nnc(N/N=C/c2ccco2)c2ccccc12)/c1ccco1,haemolysis,human,"10 mM, 45 min",,haemolysis,12.3%
CSCC[C@H](N)C(=O)N[C@@H](CO)C(=O)N[C@H](C(=O)N[C@@H](C)C(=O)NCC(=O)N[C@@H](CC(C)C)C(=O)N[C@@H](CCCCN)C(=O)N[C@@H](CCCCN)C(=O)N[C@@H](CCC(N)=O)C(=O)N[C@@H](Cc1c[nH]c2ccccc12)C(=O)N[C@@H](Cc1c[nH]cn1)C(=O)N[C@@H](CCCCN)C(=O)N[C@@H](C)C(=O)N[C@H](C(=O)N[C@@H](CCC(N)=O)C(=O)N[C@@H](CCCCN)C(=O)N[C@H](C(=O)N[C@@H](CO)C(=O)N[C@@H](CCC(=O)O)C(=O)N[C@@H](CCCCN)C(=O)N[C@H](C(=O)NCC(=O)NCC(=O)N[C@@H](C)C(N)=O)C(C)C)C(C)C)[C@@H](C)O)C(C)C,circular dichroism,phosphate buffer,pH 7.4,,fractional helicity,3.4%
CC(C)[C@H](NC(=O)[C@H](Cc1c[nH]c2ccccc12)NC(=O)[C@H](CCCNC(=N)N)NC(=O)[C@H](CCCNC(=N)N)NC(=O)[C@@H](NC(=O)[C@@H](NC(=O)[C@H](CCCNC(=N)N)NC(=O)[C@@H](NC(=O)[C@@H](NC(=O)[C@H](CCCNC(=N)N)NC(=O)[C@H](CCCNC(=N)N)NC(=O)[C@@H](NC(=O)[C@H](Cc1c[nH]c2ccccc12)NC(=O)[C@H](CCCNC(=N)N)NC(=O)[C@H](CCCNC(=N)N)NC(=O)[C@@H](NC(=O)[C@H](CCCNC(=N)N)NC(=O)[C@H](CCCNC(=N)N)NC(=O)[C@@H](NC(=O)[C@H](Cc1c[nH]c2ccccc12)NC(=O)[C@H](CCCNC(=N)N)NC(=O)[C@@H](N)CCCNC(=N)N)C(C)C)C(C)C)C(C)C)C(C)C)C(C)C)C(C)C)C(C)C)C(=O)N[C@@H](CCCNC(=N)N)C(=O)N[C@@H](CCCNC(=N)N)C(=O)O,,"CD1 mouse, urine","intravenous, 15 mg/kg, 6 h, [14C]-labelled compound",,glucose excretion,50 µg/day/g body weight
Cc1nc(N)nc2c1C(=O)N[C@@H](c1ccc(F)cc1-c1cccc(O[11CH3])n1)C2,ex vivo biodistribution,"healthy mice, kidneys","60 min post-injection, baseline, vehicle pre-treatment",,SUV,1.6 ± 0.1
CCCCN1C(=O)c2cccc3c(NCCCN4CCOCC4)ccc(c23)C1=O,,water,pH 6.0,,molar extinction coefficient,10800 M⁻¹ cm⁻¹
Cc1cc(-c2ccc(C(=O)[C@@H]3CCCC[C@H]3C(=O)Nc3cnn4c3C(=O)NCC4)cc2)[nH]n1,,"human, urine","oral, 200 mg, 168-192 h",reference: dose,radioactivity recovery per interval,< 0.01% and 0.02%
C=Cc1cccc([B-]23OC(=O)C(c4ccccc4)=N[N+]2=Cc2ccc(N(CC)CC)cc2O3)c1 (centres unmarked),,toluene,,,molar absorption coefficient,52000 M⁻¹ cm⁻¹
C=C[C@]1(C)C[C@@H](OC(=O)CSc2ccc(NC(=O)c3ccco3)cc2)[C@]2(C)[C@H](C)CC[C@]3(CCC(=O)[C@H]32)[C@@H](C)[C@@H]1O,,"M. gallisepticum-infected chickens, plasma","intramuscular, 40 mg/kg single dose",,Tmax,23.4 min
CC(C)C[C@H](NC(=O)[C@H](CCCN)NC(=O)CNC(=O)[C@@H](NC(=O)[C@H](C)NC(=O)[C@@H]1CSCSC[C@H](NC(=O)CC[C@H](N)C(=O)O)C(=O)N[C@@H](CC(N)=O)C(=O)N[C@@H]([C@@H](C)O)C(=O)N[C@@H](C)C(=O)N[C@@H]([C@@H](C)O)C(=O)N1)[C@@H](C)O)C(=O)N[C@@H](C)C(=O)N[C@@H](CCC(=O)O)C(=O)N[C@@](C)(Cc1ccccc1)C(=O)N[C@@H](CC(C)C)C(=O)N[C@H](C(=O)N[C@@H](CCCNC(=N)N)C(=O)N[C@@H](CO)C(=O)N[C@@H](CO)C(=O)N[C@@H](CC(N)=O)C(=O)N(C)[C@@H](CC(N)=O)C(=O)N[C@@H](Cc1ccccc1)C(=O)NCC(=O)N1CCC[C@H]1C(=O)N[C@@H](CCCCNC(=O)CC[C@H](NC(=O)CC[C@H](NC(=O)CCCCCCCCCCCCCCCCCCC(=O)O)C(=O)O)C(=O)O)C(=O)N[C@@H](CC(C)C)C(=O)N1CCC[C@H]1C(=O)N1CCC[C@H]1C(=O)N[C@H](C(=O)N[C@@H](CCC(=O)O)C(=O)N[C@H](C(=O)NCC(=O)N[C@@H](CO)C(=O)N[C@@H](CC(N)=O)C(=O)N[C@H](C(=O)N[C@@H](Cc1ccc(O)cc1)C(N)=O)[C@@H](C)O)C(C)C)[C@@H](C)O)C(C)C,,"healthy humans, plasma","subcutaneous, dose not given",,AUC(0-tlast),59700 ng·h/mL
CCCCN1C(=O)c2cccc3c(NCCCCN4CCOCC4)ccc(c23)C1=O,,DMSO,,,molar extinction coefficient,8600 M⁻¹ cm⁻¹
[123I]c1ccc2nc(-c3ccc(-n4ccnn4)nc3)cn2c1,,"Wistar rat, male, red marrow","intravenous, 4 MBq, 6 h",,tissue uptake,0.075 ± 0.024 %ID/g
CCC(=O)N(C)c1ccc(Cl)c(Cl)c1,,female C57BL/6 mice,"intravenous, 2 mg/kg, 0.5 h",,plasma concentration,148 ng/mL

# Repeated from above:
SMILES,test,system,setting,scale,quantity,result
CCCCN1C(=O)c2cccc3c(NCCCCN4CCOCC4)ccc(c23)C1=O,,DMSO,,,molar extinction coefficient,8600 M⁻¹ cm⁻¹
CCc1cnc(NC(=O)c2cc(S(=O)(=O)N3CCOCC3)ccc2N(C)C2CCCC2)s1,,mouse,"10 mg/kg, 3 doses",,total bilirubin,0.1 mg/dL
CC(C)[C@H](NC(=O)[C@H](Cc1c[nH]c2ccccc12)NC(=O)[C@H](CCCNC(=N)N)NC(=O)[C@H](CCCNC(=N)N)NC(=O)[C@@H](NC(=O)[C@@H](NC(=O)[C@H](CCCNC(=N)N)NC(=O)[C@@H](NC(=O)[C@@H](NC(=O)[C@H](CCCNC(=N)N)NC(=O)[C@H](CCCNC(=N)N)NC(=O)[C@@H](NC(=O)[C@H](Cc1c[nH]c2ccccc12)NC(=O)[C@H](CCCNC(=N)N)NC(=O)[C@H](CCCNC(=N)N)NC(=O)[C@@H](NC(=O)[C@H](CCCNC(=N)N)NC(=O)[C@H](CCCNC(=N)N)NC(=O)[C@@H](NC(=O)[C@H](Cc1c[nH]c2ccccc12)NC(=O)[C@H](CCCNC(=N)N)NC(=O)[C@@H](N)CCCNC(=N)N)C(C)C)C(C)C)C(C)C)C(C)C)C(C)C)C(C)C)C(C)C)C(=O)N[C@@H](CCCNC(=N)N)C(=O)N[C@@H](CCCNC(=N)N)C(=O)O,,"CD1 mouse, urine","intravenous, 15 mg/kg, 6 h, [14C]-labelled compound",,glucose excretion,50 µg/day/g body weight
